{"data": "Assay results of several laboratories", "cell line": "HeLa", "note": "Where no end group is shown, it is not given here. The star is where a group is joined."}
{"Molecule": "CCCc1ccc(S(=O)(=O)Oc2ccc(NC(=O)c3ccccc3)cc2)cc1", "assay": "cell growth or viability, MTT", "conditions": "100 µM, 24 h", "endpoint": "inhibition", "result": "38.7%"}
{"Molecule": "5FAM-KKSRRC(Farnesyl)VLS (N-5-FAM, S-farnesyl-Cys; 5FAM = O=C1OC2(c3ccc(O)cc3Oc3cc(O)ccc32)c2ccc(C(=O)*)cc21; Farnesyl = CC(C)=CCC/C(C)=C/CC/C(C)=C/C*)", "assay": "flow cytometry", "conditions": "1 µM, 2 h, added: rotenone 12 µM and 2-deoxyglucose 15 mM", "how to read": "reference: normal ATP conditions", "endpoint": "cellular uptake", "result": "no effect"}
{"Molecule": "CC1(C(=O)Nc2ccc(OS(=O)(=O)c3ccccc3)cc2)c2ccccc2-c2ccccc21", "assay": "cell growth or viability, MTT", "conditions": "100 µM, 24 h", "endpoint": "inhibition", "result": "28.1%"}
{"Molecule": "COc1cc2c(cc1OC)-c1c/c(=N\\c3c(C)cc(C)cc3C)n(C)c(=O)n1CC2", "assay": "rescue of DNMDP cytotoxicity", "conditions": "48 h, added: DNMDP", "endpoint": "EC50", "result": "< 0.001 µM"}
{"Molecule": "Cc1ccc(C(=O)Nc2ccc(OS(=O)(=O)c3ccc(Cl)cc3)cc2)cc1", "assay": "cell growth or viability, MTT", "conditions": "100 µM, 24 h", "endpoint": "inhibition", "result": "32.4%"}
{"Molecule": "CN(C)C/C=C/C(=O)Nc1ccc(C(=O)Nc2cccc(Nc3cc(-c4c[nH]c5ccccc45)ncn3)c2)cc1", "assay": "lysosome enlargement and autophagy block, immunofluorescence", "conditions": "18 h", "endpoint": "lowest active concentration", "result": "250 nM"}
{"Molecule": "CC1(C(=O)Nc2ccc(OS(C)(=O)=O)cc2)c2ccccc2-c2ccccc21", "assay": "cell growth or viability, MTT", "conditions": "100 µM, 24 h", "endpoint": "inhibition", "result": "> 50%"}
{"Molecule": "N=C(N)NCCC[C@@H]1NC(=O)[C@H](CCCNC(=N)N)NC(=O)[C@H](CCCNC(=N)N)NC(=O)[C@H](Cc2ccc3ccccc3c2)NC(=O)[C@H](Cc2ccccc2)NC(=O)[C@H](CCC(N)=O)NC(=O)[C@H](CCCNC(=N)N)NC1=O", "assay": "flow cytometry, refers to: NF-labelled peptide", "conditions": "5 µM, 2 h, 37 °C, miniPEG linker", "how to read": "reference: compound set to 100%", "endpoint": "cytosolic entry", "result": "100%"}
{"Molecule": "COc1cc(-c2cn(-c3ccc(C(C)(C)C)cc3)nn2)[nH]c1/C=N/C12CC3CC(CC(C3)C1)C2.Cl", "conditions": "3.9 µM, 60 and 120 min, added: syrosingopine 10 µM pretreatment", "how to read": "reference: syrosingopine alone", "endpoint": "intracellular lactate decrease", "result": "~50%"}
{"Molecule": "CC[C@H](C)[C@H](NC(=O)[C@H](Cc1c[nH]cn1)NC(=O)[C@H](Cc1ccccc1)NC(=O)[C@H]1CSCc2ccccc2CSC[C@@H](NC(=O)[C@@H](NC(=O)Cc2ccccc2)C(C)C)C(=O)N[C@@H](CC(N)=O)C(=O)N[C@@H](C)C(=O)N1)C(=O)N[C@@H](Cc1c[nH]c2ccccc12)C(=O)N[C@@H](Cc1c[nH]cn1)C(N)=O", "assay": "immunoblot p62 and LC3-II", "conditions": "concentration not given, 2 h, acidified Opti-MEM", "endpoint": "autophagy induction", "result": "inactive"}
{"Molecule": "CCn1c2ccccc2c2cc(C3CC(c4cc5cccc(OC)c5oc4=O)=NN3c3cccc(Cl)c3)ccc21 (stereo not drawn)", "assay": "propidium iodide staining", "conditions": "IC50, 24 h", "endpoint": "cells in G0/G1 phase", "result": "75.1%"}
{"Molecule": "CC(=NN=C(N)[S-])C(C)=NN=C(N)[S-].O=[N+]([O-])[O-].[Co+3].c1c[nH]cn1.c1c[nH]cn1", "assay": "cell growth or viability, MTT", "endpoint": "IC50", "result": "> 500 µM"}
{"note": "A few entries again:"}
{"Molecule": "CC[C@H](C)[C@H](NC(=O)[C@H](Cc1c[nH]cn1)NC(=O)[C@H](Cc1ccccc1)NC(=O)[C@H]1CSCc2ccccc2CSC[C@@H](NC(=O)[C@@H](NC(=O)Cc2ccccc2)C(C)C)C(=O)N[C@@H](CC(N)=O)C(=O)N[C@@H](C)C(=O)N1)C(=O)N[C@@H](Cc1c[nH]c2ccccc12)C(=O)N[C@@H](Cc1c[nH]cn1)C(N)=O", "assay": "immunoblot p62 and LC3-II", "conditions": "concentration not given, 2 h, acidified Opti-MEM", "endpoint": "autophagy induction", "result": "inactive"}
{"Molecule": "CN(C)C/C=C/C(=O)Nc1ccc(C(=O)Nc2cccc(Nc3cc(-c4c[nH]c5ccccc45)ncn3)c2)cc1", "assay": "lysosome enlargement and autophagy block, immunofluorescence", "conditions": "18 h", "endpoint": "lowest active concentration", "result": "250 nM"}
